Published values of several laboratories.
Each line is one published result; not all experiments were run side by side.

CC[C@H](C)[C@H](NC(=O)[C@H](Cc1ccccc1)NC(=O)[C@H](CN)NC(=O)[C@H](CCCNC(=N)N)NC(=O)[C@H](Cc1ccccc1)NC(=O)[C@H](Cc1ccccc1)NC(=O)[C@H](CCCCN)NC(=O)[C@H](CO)NC(=O)[C@H](CC(C)C)NC(=O)[C@H](CCCNC(=N)N)NC(=O)[C@H](CCSC)NC(=O)[C@H](C)N)C(=O)N[C@@H](CC(C)C)C(=O)N[C@@H](CCCCN)C(=O)N[C@@H](CCCNC(=N)N)C(=O)N[C@@H](CCCCN)C(=O)N[C@@H](CCCCN)C(=O)O  helicity (circular dichroism; 20% TFE in PBS; 200 µM, pH 7.4, 25 °C): 14.3%
CC(C)C[C@H]1NC(=O)[C@@H](CC(C)C)NC(=O)[C@@](C)(NC(=O)[C@@H](CCC(=O)O)NC(=O)[C@@H](Cc2ccc(C(F)(F)F)cc2)NC(=O)[C@@H](CC(N)=O)NC(=O)[C@@]2(C)CCCC=CCCC[C@@](C)(N)C(=O)N[C@H](C)C(=O)N[C@H](Cc3c[nH]c4cc(F)ccc34)C(=O)N[C@H](Cc3ccc(O)cc3)C(=O)N2)CCCC=CCCCCCC[C@](C)(C(N)=O)NC1=O  helicity (circular dichroism; solution; 25 °C): 20%
CC[C@H](C)[C@H](NC(=O)[C@H](Cc1ccccc1)NC(=O)[C@H](CC(=O)O)NC(=O)[C@@H]1CCCCNC(=O)NCCC[C@H](NC(=O)[C@H](CC(C)C)NC(=O)[C@H](CCCNC(=N)N)NC(=O)[C@H](CCSC)NC(=O)[C@H](C)N)C(=O)N[C@@H](CCCCN)C(=O)N[C@@H](Cc2ccccc2)C(=O)N[C@@H](Cc2ccccc2)C(=O)N1)C(=O)N[C@@H](CC(C)C)C(=O)N[C@@H](CCC(N)=O)C(=O)N[C@@H](CCCNC(=N)N)C(=O)N[C@@H](CCCCN)C(=O)N[C@@H](CCCCN)C(=O)O  helicity (circular dichroism; 20% TFE in PBS; 200 µM, pH 7.4, 25 °C): 29%
CC(=O)N[C@@H](CCCCN)C(=O)N[C@@H](CCCCN)C(=O)N[C@@H](CCCNC(=N)N)C(=O)N[C@@H](Cc1ccc(O)cc1)C(=O)N[C@@H](CO)C(=O)N[C@@H](CCCNC(=N)N)C(=O)N[C@@H](CCC(=O)O)C(=O)N[C@@]1(C)CCCC=CCCC[C@@](C)(C(N)=O)NC(=O)CNC(=O)[C@H](CC(C)C)NC(=O)[C@H](CC(C)C)NC1=O  helicity (circular dichroism; solution): 18%
CC(=O)N[C@@H](CC(C)C)C(=O)N[C@H](C(=O)N[C@@H](Cc1ccccc1)C(=O)N[C@@H](CCC(=O)O)C(=O)N[C@@H](CCC(=O)O)C(=O)N[C@@H](Cc1ccc(O)cc1)C(=O)N[C@@H](Cc1c[nH]c2ccccc12)C(=O)N[C@H]1CCCCNC(=O)C[C@@H](C(N)=O)NC(=O)[C@H]([C@@H](C)O)NC(=O)[C@H](CC(C)C)NC(=O)[C@H](CCC(N)=O)NC1=O)[C@@H](C)O  helicity (circular dichroism; phosphate buffer 10 mM; 50 µM, pH 7.4): 60%
CC[C@H](C)[C@@H]1NC(=O)[C@H](CCCCN)NC(=O)[C@H](CCCCN)NC(=O)[C@H](Cc2ccc(O)cc2)NC(=O)[C@H](CC(C)C)NC(=O)[C@@H]2CCCN2C(=O)[C@H](C)NC(=O)CNC(=O)CNC(=O)[C@H](CO)NC(=O)CNC(=O)CNC(=O)[C@H](CO)NC(=O)[C@H](CCC(=O)O)NC(=O)[C@H](CC(C)C)NC(=O)[C@H](CC(C)C)NC(=O)[C@H](CCCCN)NC(=O)[C@H](CCCCN)NC(=O)[C@H]([C@@H](C)CC)NC(=O)[C@H]([C@@H](C)CC)NC(=O)[C@H](CCCCN)NC(=O)[C@H](CCCCN)NC(=O)[C@H](Cc2ccc(O)cc2)NC(=O)[C@H](CC(C)C)NC(=O)[C@@H]2CCCN2C(=O)[C@H](C)NC(=O)CNC(=O)CNC(=O)[C@H](CO)NC(=O)CNC(=O)CNC(=O)[C@H](CO)NC(=O)[C@H](CCC(=O)O)NC(=O)[C@H](CC(C)C)NC(=O)[C@H](CC(C)C)NC(=O)[C@H](CCCCN)NC(=O)[C@H](CCCCN)NC(=O)[C@H]([C@@H](C)CC)NC1=O  helicity (circular dichroism; aqueous NaF phosphate buffer; 50 µM, pH 7.5): 35%
CC(=O)N[C@@H](CCCCN)C(=O)N[C@@H](CCCCN)C(=O)N[C@@H](CCCNC(=N)N)C(=O)N[C@@H](Cc1ccc(O)cc1)C(=O)N[C@@H](CC(=O)O)C(=O)N[C@@H](CCCNC(=N)N)C(=O)N[C@@]1(C)CCCC=CCCC[C@@](C)(C(=O)N[C@@H](Cc2ccccc2)C(=O)N[C@@H](CCC(N)=O)C(=O)N[C@@H](Cc2ccccc2)C(N)=O)NC(=O)[C@H](CC(C)C)NC(=O)[C@H](CC(C)C)NC(=O)[C@H](Cc2ccccc2)NC1=O  helicity (CD spectroscopy; sodium phosphate buffer; 25 to 100 µM, pH 7.4, 25 °C): 5%
CC[C@H](C)[C@@H]1NC(=O)[C@H](CCCCN)NC(=O)[C@H](CCCCN)NC(=O)[C@H](Cc2ccc(O)cc2)NC(=O)[C@H](CC(C)C)NC(=O)[C@@H]2CCCN2C(=O)[C@H](C)NC(=O)CNC(=O)CNC(=O)[C@H](CO)NC(=O)CNC(=O)CNC(=O)[C@H](CO)NC(=O)[C@H](CCC(=O)O)NC(=O)[C@H](CC(C)C)NC(=O)[C@H](CC(C)C)NC(=O)[C@H](CCCCN)NC(=O)[C@H](CCCCN)NC(=O)[C@H]([C@@H](C)CC)NC(=O)[C@H]([C@@H](C)CC)NC(=O)[C@H](CCCCN)NC(=O)[C@H](CCCCN)NC(=O)[C@H](Cc2ccc(O)cc2)NC(=O)[C@H](CC(C)C)NC(=O)[C@@H]2CCCN2C(=O)[C@H](C)NC(=O)CNC(=O)[C@@H]2CSSC[C@H](NC(=O)[C@H](CC(C)C)NC(=O)[C@H](CCCCN)NC(=O)[C@H](CCCCN)NC(=O)[C@H]([C@@H](C)CC)NC1=O)C(=O)N[C@@H](CCCCN)C(=O)N[C@@H](CC(N)=O)C(=O)NCC(=O)N2  helicity (circular dichroism; aqueous NaF phosphate buffer; 50 µM, pH 7.5): 37%
CC[C@H](C)[C@H](NC(=O)[C@H](Cc1ccccc1)NC(=O)[C@H](CN)NC(=O)[C@H](CCCNC(=N)N)NC(=O)[C@H](Cc1ccccc1)NC(=O)[C@H](Cc1ccccc1)NC(=O)[C@H](CCCCN)NC(=O)[C@H](CO)NC(=O)[C@H](CC(C)C)NC(=O)[C@H](CCCNC(=N)N)NC(=O)[C@H](CCSC)NC(=O)[C@H](C)N)C(=O)N[C@@H](CC(C)C)C(=O)N[C@@H](CN)C(=O)N[C@@H](CCCNC(=N)N)C(=O)N[C@@H](CCCCN)C(=O)N[C@@H](CCCCN)C(=O)O  helicity (circular dichroism; 20% TFE in PBS; 200 µM, pH 7.4, 25 °C): 18.3%
CC[C@H](C)[C@@H]1NC(=O)[C@H](CCCCN)NC(=O)[C@H](CCCCN)NC(=O)[C@H](Cc2ccc(O)cc2)NC(=O)[C@H](CC(C)C)NC(=O)[C@@H]2CCCN2C(=O)[C@H](C)NC(=O)CNC(=O)CNC(=O)[C@H](CO)NC(=O)CNC(=O)CNC(=O)[C@H](CO)NC(=O)[C@H](CCC(=O)O)NC(=O)[C@H](CC(C)C)NC(=O)[C@H](CC(C)C)NC(=O)[C@H](CCCCN)NC(=O)[C@H](CCCCN)NC(=O)[C@H]([C@@H](C)CC)NC(=O)[C@H]([C@@H](C)CC)NC(=O)[C@H](CCCCN)NC(=O)[C@H](CCCCN)NC(=O)[C@H](Cc2ccc(O)cc2)NC(=O)[C@H](CC(C)C)NC(=O)[C@@H]2CCCN2C(=O)[C@H](C)NC(=O)CNC(=O)[C@@H]2CSSC[C@H](NC(=O)[C@H](CC(C)C)NC(=O)[C@H](CCCCN)NC(=O)[C@H](CCCCN)NC(=O)[C@H]([C@@H](C)CC)NC1=O)C(=O)N[C@@H](CCC(=O)O)C(=O)N[C@@H](CC(N)=O)C(=O)NCC(=O)N2  helicity (circular dichroism; aqueous NaF phosphate buffer; 50 µM, pH 7.5): 15%
CC[C@H](C)[C@@H]1NC(=O)[C@H](Cc2ccccc2)NC(=O)[C@@H](NC(=O)[C@H](CCCNC(=N)N)NC(=O)[C@H](Cc2ccccc2)NC(=O)[C@H](Cc2ccccc2)NC(=O)[C@H](CCCCN)NC(=O)[C@H](CO)NC(=O)[C@H](CC(C)C)NC(=O)[C@H](CCCNC(=N)N)NC(=O)[C@H](CCSC)NC(=O)[C@H](C)N)CCNC(=O)NCC[C@@H](C(=O)N[C@@H](CCCNC(=N)N)C(=O)N[C@@H](CCCCN)C(=O)N[C@@H](CCCCN)C(=O)O)NC(=O)[C@H](CC(C)C)NC1=O  helicity (circular dichroism; 20% TFE in PBS; 200 µM, pH 7.4, 25 °C): 7.7%
CC[C@H](C)[C@@H]1NC(=O)[C@H](CCCCN)NC(=O)[C@H](CCCCN)NC(=O)[C@H](Cc2ccc(O)cc2)NC(=O)[C@H](CC(C)C)NC(=O)[C@@H]2CCCN2C(=O)[C@H](C)NC(=O)CNC(=O)CNC(=O)[C@H](CO)NC(=O)CNC(=O)CNC(=O)[C@H](CC(N)=O)NC(=O)[C@H](CCC(=O)O)NC(=O)[C@H](CC(C)C)NC(=O)[C@H](CC(C)C)NC(=O)[C@H](CCCCN)NC(=O)[C@H](CCCCN)NC(=O)[C@H]([C@@H](C)CC)NC(=O)[C@H]([C@@H](C)CC)NC(=O)[C@H](CCCCN)NC(=O)[C@H](CCCCN)NC(=O)[C@H](Cc2ccc(O)cc2)NC(=O)[C@H](CC(C)C)NC(=O)[C@@H]2CCCN2C(=O)[C@H](C)NC(=O)CNC(=O)CNC(=O)[C@H](CO)NC(=O)CNC(=O)CNC(=O)[C@H](CC(N)=O)NC(=O)[C@H](CCC(=O)O)NC(=O)[C@H](CC(C)C)NC(=O)[C@H](CC(C)C)NC(=O)[C@H](CCCCN)NC(=O)[C@H](CCCCN)NC(=O)[C@H]([C@@H](C)CC)NC1=O  helicity (circular dichroism; aqueous NaF phosphate buffer; 50 µM, pH 7.5): 17%
CC(=O)N[C@@H](CCCCN)C(=O)N[C@@H](CCCCN)C(=O)N[C@@H](CCCNC(=N)N)C(=O)N[C@@H](Cc1ccc(O)cc1)C(=O)N[C@@H](CO)C(=O)N[C@@H](CCCNC(=N)N)C(=O)N[C@@]1(C)CCCC=CCCC[C@@](C)(C(=O)N[C@@H](Cc2ccccc2)C(N)=O)NC(=O)[C@H](CC(C)C)NC(=O)[C@H](CC(C)C)NC(=O)[C@H](C)NC1=O  helicity (circular dichroism; solution): 80%

Excerpt of the above:
CC[C@H](C)[C@@H]1NC(=O)[C@H](CCCCN)NC(=O)[C@H](CCCCN)NC(=O)[C@H](Cc2ccc(O)cc2)NC(=O)[C@H](CC(C)C)NC(=O)[C@@H]2CCCN2C(=O)[C@H](C)NC(=O)CNC(=O)CNC(=O)[C@H](CO)NC(=O)CNC(=O)CNC(=O)[C@H](CO)NC(=O)[C@H](CCC(=O)O)NC(=O)[C@H](CC(C)C)NC(=O)[C@H](CC(C)C)NC(=O)[C@H](CCCCN)NC(=O)[C@H](CCCCN)NC(=O)[C@H]([C@@H](C)CC)NC(=O)[C@H]([C@@H](C)CC)NC(=O)[C@H](CCCCN)NC(=O)[C@H](CCCCN)NC(=O)[C@H](Cc2ccc(O)cc2)NC(=O)[C@H](CC(C)C)NC(=O)[C@@H]2CCCN2C(=O)[C@H](C)NC(=O)CNC(=O)CNC(=O)[C@H](CO)NC(=O)CNC(=O)CNC(=O)[C@H](CO)NC(=O)[C@H](CCC(=O)O)NC(=O)[C@H](CC(C)C)NC(=O)[C@H](CC(C)C)NC(=O)[C@H](CCCCN)NC(=O)[C@H](CCCCN)NC(=O)[C@H]([C@@H](C)CC)NC1=O  helicity (circular dichroism; aqueous NaF phosphate buffer; 50 µM, pH 7.5): 35%
